Published values pooled from the literature.
Each line is one published result; not all experiments were run side by side. ± gives the spread as reported.

O=C(c1ccc(C23CC(S(F)(F)(F)(F)F)(CO2)C3)cc1)N1CCN(c2ncccn2)CC1 — recovery (MDCK-LE cells; time not given, apical to basolateral): 58%
CN1CCCNC(=O)c2cccc(c2)C(=O)NCCCN(C)CCCNc2cccc3c2C(=O)c2cccc(c2C3=O)NCCC1 — viability (HSC-2; cell growth or viability, CCK-8; 1.5 µM, 48 h): 35.5%
Clc1ccc(-c2cc(CN3c4ccccc4C=Cc4ccccc43)on2)cc1 — IC50 (BJ; cytotoxicity): > 30 µM
O=C(c1ccc(-c2cccc(C(F)(F)F)c2)cc1)N1CCN(c2ncccn2)CC1 — Papp A-B (MDCK-LE cells): 22 ×10⁻⁶ cm/s
O=C(/C=C/c1cccc(C(F)(F)F)c1)c1cccc(O)c1 — IC50 (U-87 MG; cell growth, MTT; 72 h): 7.53 ± 1 µM
CCNc1cc2c(cc1C)C1(c3cc(C)c(NCC)cc3O2)c2ccccc2C(=O)N1N=Cc1c[c-]c(-c2ccccn2)cc1.Cc1c(C)c(-c2ccc(-c3ccccc3)cc2)[c-](C)c1C.[Cl-].[Ir+3] — viable cells (A549; annexin V/PI flow cytometry; 0.5× IC50, 24 h): 86.41 ± 0.12%
Cc1ccc(S(=O)(=O)n2cc3c4c2C(=O)C(N)=CC4=NCC3)cc1 — CC50 (HCT-116; cell growth or viability, MTT; 72 h): 1.5 µM
Cc1ccc(-c2cc(CN3c4ccccc4C=Cc4ccccc43)on2)cc1 — IC50 (BJ; cell growth or viability): 21.3 µM
COc1cc(C(=O)/C=C/c2ccc(OC(F)F)cc2)ccc1O — IC50 (U-87 MG; cell growth, MTT; 72 h): 15.06 ± 0.09 µM
CN1C/C(=C\c2cc(Cl)c(O)c(Cl)c2)C(=O)/C(=C/c2cc(Cl)c(O)c(Cl)c2)C1 — cytotoxicity (PC-12; MTT; range over 3.75 to 60 µM, 24 and 48 h): not toxic
Cc1nc2cccc(OCC(C)(C)C(=O)NC(C)C)c2c(N)c1C(=O)[O-].[Na+] — relative mitotic index (human peripheral blood lymphocytes; 125 g/mL, 3 h, without S9): 89%
Clc1cccc(-c2cc(CN3c4ccccc4C=Cc4ccccc43)on2)c1 — IC50 (BJ; cytotoxicity): > 30 µM
Cc1c2ccnc(C(=O)N[C@H](C)CN(C)C)c2cc2c3cc(OCCCN4CCN(C)CC4)ccc3n(C)c12 — cell viability (patient-derived LCL and iPSC; cell proliferation; concentration not given, 4 days, outcome no effect): no effect
Clc1ccc2c(c1)N(CCCN1CCN(CCn3cc(CN4CCCNCCN(Cc5cn(CCN6CCN(CCCN7c8ccccc8Sc8ccc(Cl)cc87)CC6)nn5)CCCNCC4)nn3)CC1)c1ccccc1S2.[Cu+2].[O-][Cl+3]([O-])([O-])[O-].[O-][Cl+3]([O-])([O-])[O-] — cytotoxicity (differentiated SH-SY5Y; 10 µM, 24 h, compound alone; baseline: vehicle): not toxic
O=[N+]([O-])c1cccc(-c2cc(CN3c4ccccc4C=Cc4ccccc43)on2)c1 — IC50 (BJ; cytotoxicity): > 30 µM
C=CC(=O)Nc1cc(Nc2nccc(-c3cn(C)c4ccccc34)n2)c(OCC(F)(F)F)nc1N(C)CCN(C)C — induction (human hepatocytes lot LTG; CYP1A2 enzyme activity, inducer; 10 µM; baseline: omeprazole 100 µM): 20.2%
NCCOCCOCCNC(=O)Cc1ccc(Nc2nc(NCc3ccc(F)cc3)nc(NCC3CCCCC3)n2)cc1 — IC50 (BEAS-2B; cytotoxicity, CCK-8; 48 h, 10% FBS): 47.6 µM
COc1ccc(CCNC2=CC3=[N+](C)CCc4c[nH]c(c43)C2=O)cc1 — CC50 (HCT-116; cell growth or viability, MTT; 72 h): 0.2 µM
N#Cc1ccc(-c2cc(CN3c4ccccc4C=Cc4ccccc43)on2)cc1 — IC50 (BJ; cytotoxicity): > 30 µM
N#Cc1cccc(/C=C/C(=O)c2ccc(O)cc2)c1 — IC50 (U-87 MG; cell growth, MTT; 72 h): 5.97 ± 1.5 µM
O=C1c2c(O)cc(O)cc2-c2c(-c3ccc(O)cc3)oc3cc(O)cc1c23 — protein level ratio (LCC2 shControl cells; label-free MS proteomics, refers to: CYP1A1; 10 µM; baseline: DMSO): 7.02
COC1=CC2=NCCc3c[nH]c(c32)C1=O — CC50 (HCT-116; cell growth or viability, MTT; 72 h): 35 µM
CC1(C)C(NC(=O)C(=NOC2(C(=O)O)CC2)c2csc(N)n2)C(=O)N1OS(=O)(=O)O (stereo not drawn) — CC50 (human normal esophageal epithelial): > 100 µM
N#Cc1cccc(-c2cc(CN3c4ccccc4C=Cc4ccccc43)on2)c1 — IC50 (BJ; cytotoxicity): > 30 µM
O=C1C(NCCc2cc(Br)c(O)c(Br)c2)=CC2=NCCc3c[nH]c1c32 — CC50 (HCT-116; cell growth or viability, MTT; 72 h): 12 µM
C1=Cc2ccccc2N(Cc2cc(-c3ccccc3)no2)c2ccccc21 — IC50 (BJ; cytotoxicity): > 30 µM
COc1c(F)c(F)c(Cn2c3cc(=O)n(Cc4cccc(C(F)(F)F)n4)c(C)c3c(=O)n2-c2ccccn2)c(F)c1F — CC50 (HEp-2; 48 (unit not given)): > 5 µM
COc1cc(/C=C2\CNC/C(=C\c3cc(Cl)c(O)c(OC)c3)C2=O)cc(Cl)c1O — cytotoxicity (PC-12; MTT; range over 3.75 to 60 µM, 24 and 48 h): not toxic
CCC(=CCc1c(O)cc2c(c1O)C(=O)CC(c1ccc(O)cc1)O2)CC (stereo not drawn) — log IC50 (HeLa; cytotoxicity, MTT; 48 h, together with: S9 fraction): 1.08 log µM
O=C(O)CCCOc1ccc(O)cc1-c1cc(-c2ccccc2C(F)(F)F)n(-c2ccccc2)n1 — beat rate (human iPSC-derived cardiomyocytes; 200 µM): 40.1 ± 1.1 min⁻¹
COc1c(F)c(F)c(Cn2c3cc(=O)n(Cc4cccc(Cl)n4)c(C)c3c(=O)n2-c2ncc(F)cc2F)c(F)c1F — CC50 (HEp-2; 48 (unit not given)): > 45 µM
COc1cc([C@@H]2O[C@@H](c3cc(OC)c(O[C@@H]4O[C@H](CO)[C@@H](O)[C@H](O)[C@H]4O)c(OC)c3)[C@H](CO)[C@H]2CO)cc(OC)c1O — non-cytotoxic concentration (differentiating 3T3-L1): 1 to 20 µM
COc1c(F)c(F)c(Cn2c3cc(=O)n(Cc4cccc(C(F)(F)F)n4)c(C)c3c(=O)n2-c2ncc(F)cc2F)c(F)c1F — Hill slope (HEp-2; cytotoxicity; 48 (unit not given)): 1.18
Fc1ccccc1-c1cc(CN2c3ccccc3C=Cc3ccccc32)on1 — IC50 (BJ; cytotoxicity): > 30 µM
Cc1c2c(=O)n(-c3ccccn3)n(Cc3c(Cl)cccc3Cl)c2cc(=O)n1Cc1cccc(C(F)(F)F)n1 — CC50 (HEp-2; 48 (unit not given)): > 5 µM
Cc1ccc2ccc(F)c(O)c2n1 — Papp (MDCK-II low-efflux (RRCK) cells; 1.5 h, apical to basal): 2.6 ×10⁻⁶ cm/s

Some of these lines once more:
COc1c(F)c(F)c(Cn2c3cc(=O)n(Cc4cccc(C(F)(F)F)n4)c(C)c3c(=O)n2-c2ccccn2)c(F)c1F — CC50 (HEp-2; 48 (unit not given)): > 5 µM
COc1cc(/C=C2\CNC/C(=C\c3cc(Cl)c(O)c(OC)c3)C2=O)cc(Cl)c1O — cytotoxicity (PC-12; MTT; range over 3.75 to 60 µM, 24 and 48 h): not toxic
CCC(=CCc1c(O)cc2c(c1O)C(=O)CC(c1ccc(O)cc1)O2)CC (stereo not drawn) — log IC50 (HeLa; cytotoxicity, MTT; 48 h, together with: S9 fraction): 1.08 log µM
O=C(O)CCCOc1ccc(O)cc1-c1cc(-c2ccccc2C(F)(F)F)n(-c2ccccc2)n1 — beat rate (human iPSC-derived cardiomyocytes; 200 µM): 40.1 ± 1.1 min⁻¹
COc1c(F)c(F)c(Cn2c3cc(=O)n(Cc4cccc(Cl)n4)c(C)c3c(=O)n2-c2ncc(F)cc2F)c(F)c1F — CC50 (HEp-2; 48 (unit not given)): > 45 µM
